# Experimental data gathered from unrelated publications.
# Every numbered part comes from another study and shows a few of its results, in no order. “And” joins repeats or separate records; there may be more than shown.

# Study 1
# Target: Calcium/calmodulin-dependent protein kinase type II subunit alpha (CAMK2A, Homo sapiens, UniProt Q9UQM7)
# Sequence of UniProt Q9UQM7 (whole entry, looked up): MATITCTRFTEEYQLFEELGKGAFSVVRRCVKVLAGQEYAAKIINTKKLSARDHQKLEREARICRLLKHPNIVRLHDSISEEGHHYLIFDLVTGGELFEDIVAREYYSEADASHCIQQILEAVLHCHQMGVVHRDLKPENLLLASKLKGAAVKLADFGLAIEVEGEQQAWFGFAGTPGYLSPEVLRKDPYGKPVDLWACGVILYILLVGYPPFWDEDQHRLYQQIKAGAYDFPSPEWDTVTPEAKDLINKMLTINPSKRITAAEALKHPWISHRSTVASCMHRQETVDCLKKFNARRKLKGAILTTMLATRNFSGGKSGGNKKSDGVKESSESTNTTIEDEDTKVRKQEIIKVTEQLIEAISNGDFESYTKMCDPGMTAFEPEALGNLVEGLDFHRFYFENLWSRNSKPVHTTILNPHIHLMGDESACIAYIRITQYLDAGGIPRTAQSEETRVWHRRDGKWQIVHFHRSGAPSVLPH
# Observed: enzyme activity
# Action: inhibitor
# Tested at: 10 µM
Compound,inhibition
COCc1c(C(C)C)nc(C(C)C)c(/C=C/[C@@H](O)C[C@@H](O)CC(=O)O)c1-c1ccc(F)cc1,-3%
COC(=O)/C=C/C(=O)O,-9%
COC(=O)[C@H]1[C@H]2C[C@@H]3c4[nH]c5ccccc5c4CCN3C[C@H]2C[C@@H](OC(=O)c2cc(OC)c(OC)c(OC)c2)[C@@H]1OC,39%
CN1CCOC(c2ccccc2)c2ccccc2C1 (stereo not shown),8%
O=C(O)C(=O)O,-0.15% and -0.12%
CCCCCCCCCCCCCCCCCCOC(=O)[C@@]1(C)CC[C@]2(C)CC[C@]3(C)C(=CC(=O)[C@@H]4[C@@]5(C)CC[C@H](O)C(C)(C)[C@@H]5CC[C@]43C)[C@@H]2C1,-5%
O=c1cccccc1,-3%
CC1(C)CC[C@]23CO[C@@]4(C=C[C@@H]5[C@@]6(C)CC[C@H](O)[C@@](C)(CO)[C@@H]6CC[C@@]5(C)[C@]4(C)C[C@@H]2O)[C@@H]3C1,-3%
CN1[C@@H]2CC[C@H]1CC(OC(=O)c1c[nH]c3ccccc13)C2 (stereo partly shown),-0.05%
CC(=O)O[C@@H]1[C@@H](O)[C@H](O[C@H]2CC[C@]34C[C@]35CC[C@]3(C)[C@@H]([C@@]6(C)CC[C@@H](C(C)(C)O)O6)[C@@H](O)C[C@@]3(C)[C@@H]5C[C@H](O[C@@H]3O[C@H](CO)[C@@H](O)[C@H](O)[C@H]3O)[C@H]4C2(C)C)OC[C@H]1O,-14%
COc1ccc(-c2cc(=O)c3c(OC)c(OC)c(OC)cc3o2)cc1OC,-16%
CCOCC(=O)O,-53%
CC1(C)CC[C@]2(C(=O)O)CC[C@]3(C)C(=CC[C@@H]4[C@@]5(C)CC[C@H](O[C@@H]6O[C@H](C(=O)O)[C@@H](O)[C@H](O[C@@H]7OC[C@@H](O)[C@H](O)[C@H]7O[C@@H]7O[C@H](CO)[C@@H](O)[C@H](O)[C@H]7O)[C@H]6O)C(C)(C)[C@@H]5CC[C@]43C)[C@@H]2C1,20%
O=c1c(O[C@@H]2O[C@H](CO)[C@H](O)[C@H](O)[C@H]2O[C@@H]2O[C@H](CO)[C@@H](O)[C@H](O)[C@H]2O)c(-c2ccc(O)cc2)oc2cc(O)cc(O)c12,18%
CCCCNc1ccc(C(=O)OCCOCCOCCOCCOCCOCCOCCOCCOCCOC)cc1,-2%
CNC(=S)NC,-7%
COc1cc2c(cc1OC)[C@H]1CC(=O)[C@H](CC(C)C)CN1CC2,-0.07%
Nc1cc(-c2ccncc2)c[nH]c1=O,-8%

# Study 2
# Target: Serine/threonine-protein kinase 4 (STK4, Homo sapiens, UniProt Q13043)
# Sequence of UniProt Q13043 (whole entry, looked up): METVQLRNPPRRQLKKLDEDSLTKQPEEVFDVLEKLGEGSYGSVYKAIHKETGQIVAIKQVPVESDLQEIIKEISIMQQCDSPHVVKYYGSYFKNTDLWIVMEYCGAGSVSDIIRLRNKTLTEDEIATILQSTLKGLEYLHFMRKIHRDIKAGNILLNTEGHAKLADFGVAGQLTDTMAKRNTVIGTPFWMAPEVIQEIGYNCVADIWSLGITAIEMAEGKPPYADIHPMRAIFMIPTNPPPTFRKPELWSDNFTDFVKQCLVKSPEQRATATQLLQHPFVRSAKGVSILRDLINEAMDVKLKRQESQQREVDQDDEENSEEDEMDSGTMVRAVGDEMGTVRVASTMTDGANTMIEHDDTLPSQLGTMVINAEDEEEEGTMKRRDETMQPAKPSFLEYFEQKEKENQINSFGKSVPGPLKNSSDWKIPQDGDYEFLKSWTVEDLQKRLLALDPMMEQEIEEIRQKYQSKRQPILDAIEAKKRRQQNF
# Observed: enzyme activity
# Action: inhibitor
# Tested at: 0.5 µM
# Reference: control
Compound,remaining activity [%]
Cc1nc(Nc2ncc(C(=O)Nc3c(C)cccc3Cl)s2)cc(N2CCN(CCO)CC2)n1,96.3
Cc1ccc(NC(=O)c2ccc(CN3CCN(C)CC3)cc2)cc1Nc1nccc(-c2cccnc2)n1,101
O=C1NC(=O)/C(=C/c2ccc3nccnc3c2)S1,95
Cn1cc(/C=C2\C(=O)Nc3ccc(S(N)(=O)=O)cc32)c2ccccc21,10.7
CC(C)c1nn(-c2c(Cl)cccc2Cl)c2nc(Cc3ccc(OCCO)cc3)[nH]c(=O)c12,96.7
Nc1[nH]nc2nnc(-c3c(-c4ccccc4)nn4ccccc34)cc12,99.1
COc1ccc(-c2cnc3c(-c4ccsc4)cnn3c2)cc1,97.3
CN(C)CCCn1cc(C2=C(c3c[nH]c4ccccc34)C(=O)NC2=O)c2ccccc21,25.1
CC(C)[C@H](CO)Nc1nc(Nc2cccc(Cl)c2)c2ncn(C(C)C)c2n1,87.7
CCC(=O)Nc1ccc2ncnc(Nc3cccc(Br)c3)c2c1,97.1
COc1ccc(Cl)cc1NC(=O)Nc1cc(C)nc2ccccc12,98.7
CCOc1cc2ncnc(Nc3cccc(Br)c3)c2cc1OCC,98.5
COc1cc2ncnc(Nc3ccc(OCc4ccccc4)cc3)c2cc1OC,101
CC(=O)O/N=C1/C(c2c(O)[nH]c3cc(Br)ccc23)=Nc2ccccc21,54.2
O=c1cc(N2CCOCC2)oc2c1ccc1ccccc12,99.5
Cn1cnc2cc3c(Nc4cccc(Br)c4)ncnc3cc21,94.2
O=C(Nc1ccc(Cl)cc1)c1ccccc1NCc1ccncc1,98.7
COc1cc2ncc(-c3ccccc3)nc2cc1OC,96.3
CCN1/C(=C/C(C)=O)Sc2ccc(OC)cc21,97.8
COc1cc2ncnc(N3CCN(C(=O)Nc4ccc(Oc5ccccc5)cc4)CC3)c2cc1OC,97.1
C[S+]([O-])c1ccc(-c2nc(-c3ccncc3)c(-c3ccc(F)cc3)[nH]2)cc1 (stereo not shown),101

# Study 3
# Species: human
# Medium: microsomes or S9
# Tested at: 2 µM
# Time: 0.5 h
Compound,remaining compound [%]
COC(=O)c1c(=O)n(Cc2ccc(C(C)(C)C)cc2)c(=O)n2c(-c3ccc(Cl)cc3)c(-c3ccc(Cl)cc3)oc12,91.3
Cn1cc(S(=O)(=O)N2CCCCC2)cc1C(=O)Nc1ccc2c(c1)OCCO2,74
COC(=O)c1c[nH]c(S(=O)(=O)Cc2csc(Br)c2)n1,> 100
COc1cc(-c2nc3c(c(=O)[nH]c(=O)n3CC(C)C)n2CC(C)C)cc(OC)c1OC,81.7
Cc1cc(C)cc(NC(=O)N2Cc3c(sc4c3CCCC4)-n3cccc3C2c2cccs2)c1 (stereo not shown),32.5
COc1ccc(C)cc1NC(=O)c1cc2ccc3cccnc3c2[nH]1,7.56
CNc1ncc(C(=O)NC[C@H]2CC[C@@H]3C[C@H]2C3(C)C)cn1,25.2
CCO[C@H]1CN(Cc2cc(=O)c3c(C)ccc(C)c3[nH]2)C[C@@H]1O,> 100
CC1(COC(=O)Nc2ccc(Cl)cc2)CCC(C(C)(C)C)=NO1 (stereo not shown),> 99
Clc1ccc2c(c1)nc(-c1cccnc1Cl)n1ncc(Br)c21,> 100
CN(C)c1nc2sc(C(=O)NCc3cc4ccccc4[nH]3)cc2s1,8.86
CCCn1ccnc1C1CC(=O)Nc2cc(O)c(OC)cc21 (stereo not shown),93.7
CC(CC(=O)O)CC(=O)Nc1sc(C(C)C)cc1C(N)=O (stereo not shown),79.2

# Study 4
# Target: 5-hydroxytryptamine receptor 2B (HTR2B, Homo sapiens, UniProt P41595)
# Sequence of UniProt P41595 (whole entry, looked up): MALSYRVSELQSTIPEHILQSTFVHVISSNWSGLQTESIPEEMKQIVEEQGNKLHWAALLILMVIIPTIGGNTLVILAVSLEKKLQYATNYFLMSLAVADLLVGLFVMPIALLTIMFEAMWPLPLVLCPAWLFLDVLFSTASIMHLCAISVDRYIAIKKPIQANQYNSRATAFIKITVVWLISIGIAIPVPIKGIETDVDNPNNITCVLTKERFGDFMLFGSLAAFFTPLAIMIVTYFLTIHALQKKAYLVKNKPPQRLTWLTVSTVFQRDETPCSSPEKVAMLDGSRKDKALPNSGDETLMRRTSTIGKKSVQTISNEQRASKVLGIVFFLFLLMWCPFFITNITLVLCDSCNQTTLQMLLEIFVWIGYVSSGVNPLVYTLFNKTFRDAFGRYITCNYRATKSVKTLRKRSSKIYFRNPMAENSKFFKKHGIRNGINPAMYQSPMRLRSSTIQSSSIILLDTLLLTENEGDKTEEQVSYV
# Observed: ligand displacement
# Tested at: 10 µM
SMILES,inhibition [%]
O=c1nc(-c2ccccn2)sc2ccccc12,34.3
CC(=O)C1=C(C)N(c2cccc(C(F)(F)F)c2)C(=O)N[C@H]1c1ccc(C#N)nc1,15.8
O=C(c1ccc(F)cc1)N1CC(COc2ccc(Br)cc2)(C(=O)O)C1,-2.5
CN(C)C(=O)Cn1cc(-c2nc(C3(c4ccc(-c5cnc(N)nc5)cc4)CC3)no2)cn1,-11.6
O=C(NCCCC1CCCCC1)c1ccc(CNC(=O)c2cnn(-c3ccccc3)c2C(F)(F)F)cc1,3.69
Cc1ccc(-c2cnc([C@@]3(O)CC[C@H](C(=O)O)C(C)(C)C3)s2)cc1Nc1cccc(C(F)(F)F)n1,77.9
CNCc1ccccc1-c1csc([C@@H](C)Nc2nc(C)nc3cc(OC)c(OC)cc23)c1,86.9
c1ccc(N2CCN(Cc3nc4ccccc4[nH]3)CC2)nc1,8.32
Nc1c(C(=O)NCc2ccc(C(=O)NCCCC3CCCCC3)cc2)cnn1-c1ccccc1,19.9
COc1cccc(CNC(=O)c2nc3scc(COCc4ccc(C(=O)O)cc4)c3c(=O)[nH]2)c1,-9.07
O=C(Nc1ccc(Oc2ccc(F)cc2)cc1)N1CCc2ncccc2[C@H]1c1ccc(F)cc1,52.4
Cn1nc(C(=O)NCc2ccc(C(=O)O)cc2)cc1-c1ccc2[nH]ccc2c1,-2.75
CC1=C(C#N)[C@@H](c2ccc3[nH]nc(C)c3c2)C(C#N)=C(c2ccc(Cl)cc2)N1,-7.44
O=C1NC(c2ccccn2)Sc2ccccc21 (stereo not shown),-5.37
FC(F)(F)c1ccc2c(c1)nc(-c1cccnc1)n2C1CC1,79.7
CN([C@@H]1CCc2c(CC(=O)O)c3cc(S(C)(=O)=O)ccc3n2C1)S(=O)(=O)c1ccc(F)cc1,-10.2
CCc1ccccc1C(=O)Nc1n[nH]c2c(C)c(F)c(C3C(C#N)=C(C)N(C)C(C)=C3C#N)cc12,32.5
CC(=O)c1c(NS(C)(=O)=O)c2cc(-c3ccc(Cl)cc3)c(-c3ccc(Cl)cc3Cl)nc2n(C)c1=O,-0.601
O=C(N[C@H]1CCCCC/C=C\C2C[C@@]2(C(=O)O)NC(=O)[C@@H]2C[C@@H](Oc3ccncc3)CN2C1=O)OC1CCCC1 (stereo partly shown),1.85
O=S(=O)(NC1CCC(c2cc(F)ccc2F)(S(=O)(=O)c2ccc(Cl)cc2)CC1)C(F)(F)F (stereo not shown),4.74
Cc1ccccc1Oc1cc(-n2c(=O)cc(C(F)(F)F)[nH]c2=O)c2ccccc2c1Cl,-0.49
O=C(Nc1cccnn1)N1CC(CC=Cc2cncc(Oc3ccc(C(F)(F)F)cn3)n2)C1,2.28
O=C(NS(=O)(=O)c1ccc(NCC2CCOCC2)c([N+](=O)[O-])c1)c1ccc(N2CCN(Cc3ccc(C(F)(F)F)cc3-c3ccc(Cl)cc3)CC2)cc1Oc1cnc2[nH]ccc2c1,-2.34
CCS(=O)(=O)c1cc2cc(C[C@@](O)(CC(C)(C)c3ccc(F)cc3C(N)=O)C(F)(F)F)[nH]c2cn1,-7.85

# Excerpt of the above (study 1):
Compound,inhibition
CCCCCCCCCCCCCCCCCCOC(=O)[C@@]1(C)CC[C@]2(C)CC[C@]3(C)C(=CC(=O)[C@@H]4[C@@]5(C)CC[C@H](O)C(C)(C)[C@@H]5CC[C@]43C)[C@@H]2C1,-5%
O=c1c(O[C@@H]2O[C@H](CO)[C@H](O)[C@H](O)[C@H]2O[C@@H]2O[C@H](CO)[C@@H](O)[C@H](O)[C@H]2O)c(-c2ccc(O)cc2)oc2cc(O)cc(O)c12,18%
Nc1cc(-c2ccncc2)c[nH]c1=O,-8%
CC1(C)CC[C@]23CO[C@@]4(C=C[C@@H]5[C@@]6(C)CC[C@H](O)[C@@](C)(CO)[C@@H]6CC[C@@]5(C)[C@]4(C)C[C@@H]2O)[C@@H]3C1,-3%
CCCCNc1ccc(C(=O)OCCOCCOCCOCCOCCOCCOCCOCCOCCOC)cc1,-2%
COCc1c(C(C)C)nc(C(C)C)c(/C=C/[C@@H](O)C[C@@H](O)CC(=O)O)c1-c1ccc(F)cc1,-3%
COC(=O)/C=C/C(=O)O,-9%
COC(=O)[C@H]1[C@H]2C[C@@H]3c4[nH]c5ccccc5c4CCN3C[C@H]2C[C@@H](OC(=O)c2cc(OC)c(OC)c(OC)c2)[C@@H]1OC,39%
CC1(C)CC[C@]2(C(=O)O)CC[C@]3(C)C(=CC[C@@H]4[C@@]5(C)CC[C@H](O[C@@H]6O[C@H](C(=O)O)[C@@H](O)[C@H](O[C@@H]7OC[C@@H](O)[C@H](O)[C@H]7O[C@@H]7O[C@H](CO)[C@@H](O)[C@H](O)[C@H]7O)[C@H]6O)C(C)(C)[C@@H]5CC[C@]43C)[C@@H]2C1,20%
